Measured values pooled from the literature.
Parts stem from different laboratories: compare values within a part only.
Sequence of UniProt P00519 (whole entry, unmodified, looked up): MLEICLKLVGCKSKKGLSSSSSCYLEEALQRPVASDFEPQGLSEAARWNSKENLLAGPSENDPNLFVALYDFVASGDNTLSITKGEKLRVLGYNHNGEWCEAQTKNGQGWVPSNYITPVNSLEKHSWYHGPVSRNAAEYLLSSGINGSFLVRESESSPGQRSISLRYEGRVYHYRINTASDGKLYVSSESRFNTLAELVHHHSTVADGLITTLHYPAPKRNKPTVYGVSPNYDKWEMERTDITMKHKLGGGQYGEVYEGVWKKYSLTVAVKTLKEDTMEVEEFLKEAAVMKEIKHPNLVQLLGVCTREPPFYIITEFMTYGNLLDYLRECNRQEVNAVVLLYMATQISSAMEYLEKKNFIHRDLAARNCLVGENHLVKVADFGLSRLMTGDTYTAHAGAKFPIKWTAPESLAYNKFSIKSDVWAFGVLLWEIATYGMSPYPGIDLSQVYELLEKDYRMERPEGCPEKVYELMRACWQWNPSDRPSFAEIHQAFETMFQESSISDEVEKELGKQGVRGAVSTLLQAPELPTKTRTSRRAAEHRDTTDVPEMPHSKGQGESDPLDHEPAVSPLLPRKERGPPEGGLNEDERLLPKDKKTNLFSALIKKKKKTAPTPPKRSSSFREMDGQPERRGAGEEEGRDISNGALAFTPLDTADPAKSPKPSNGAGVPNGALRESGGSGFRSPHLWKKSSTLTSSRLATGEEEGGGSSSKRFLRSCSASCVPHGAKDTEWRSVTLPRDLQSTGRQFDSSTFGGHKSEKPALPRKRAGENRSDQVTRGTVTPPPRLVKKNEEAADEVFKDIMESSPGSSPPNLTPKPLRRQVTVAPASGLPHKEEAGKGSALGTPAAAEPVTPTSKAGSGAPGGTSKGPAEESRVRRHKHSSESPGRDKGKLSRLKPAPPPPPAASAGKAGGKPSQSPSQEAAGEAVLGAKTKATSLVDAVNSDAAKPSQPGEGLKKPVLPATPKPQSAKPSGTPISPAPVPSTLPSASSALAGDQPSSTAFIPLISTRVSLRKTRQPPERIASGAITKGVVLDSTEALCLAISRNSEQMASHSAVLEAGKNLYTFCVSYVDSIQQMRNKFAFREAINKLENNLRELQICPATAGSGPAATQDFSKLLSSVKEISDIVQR
Sequence of UniProt Q9C5X0 (whole entry, looked up): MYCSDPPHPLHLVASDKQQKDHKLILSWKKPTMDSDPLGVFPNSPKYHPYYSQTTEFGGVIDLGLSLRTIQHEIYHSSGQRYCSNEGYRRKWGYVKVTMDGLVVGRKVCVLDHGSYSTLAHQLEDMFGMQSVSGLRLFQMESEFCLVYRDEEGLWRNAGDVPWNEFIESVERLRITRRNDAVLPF
Sequence of UniProt Q8LAL2 (whole entry, looked up): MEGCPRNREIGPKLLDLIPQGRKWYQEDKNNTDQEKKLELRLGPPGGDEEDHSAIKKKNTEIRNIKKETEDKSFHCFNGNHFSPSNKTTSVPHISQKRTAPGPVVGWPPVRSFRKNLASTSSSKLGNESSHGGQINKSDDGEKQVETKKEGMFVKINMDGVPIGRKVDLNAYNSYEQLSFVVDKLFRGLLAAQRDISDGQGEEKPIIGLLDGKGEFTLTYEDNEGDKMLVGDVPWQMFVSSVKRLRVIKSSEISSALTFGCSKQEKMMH
Sequence of UniProt O24410 (whole entry, looked up): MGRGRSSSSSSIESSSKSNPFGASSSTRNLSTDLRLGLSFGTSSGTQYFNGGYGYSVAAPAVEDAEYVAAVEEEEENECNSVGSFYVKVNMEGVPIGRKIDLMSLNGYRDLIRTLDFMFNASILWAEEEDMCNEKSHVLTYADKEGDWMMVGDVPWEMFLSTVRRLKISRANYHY
Sequence of UniProt Q9ZTX8 (whole entry, looked up): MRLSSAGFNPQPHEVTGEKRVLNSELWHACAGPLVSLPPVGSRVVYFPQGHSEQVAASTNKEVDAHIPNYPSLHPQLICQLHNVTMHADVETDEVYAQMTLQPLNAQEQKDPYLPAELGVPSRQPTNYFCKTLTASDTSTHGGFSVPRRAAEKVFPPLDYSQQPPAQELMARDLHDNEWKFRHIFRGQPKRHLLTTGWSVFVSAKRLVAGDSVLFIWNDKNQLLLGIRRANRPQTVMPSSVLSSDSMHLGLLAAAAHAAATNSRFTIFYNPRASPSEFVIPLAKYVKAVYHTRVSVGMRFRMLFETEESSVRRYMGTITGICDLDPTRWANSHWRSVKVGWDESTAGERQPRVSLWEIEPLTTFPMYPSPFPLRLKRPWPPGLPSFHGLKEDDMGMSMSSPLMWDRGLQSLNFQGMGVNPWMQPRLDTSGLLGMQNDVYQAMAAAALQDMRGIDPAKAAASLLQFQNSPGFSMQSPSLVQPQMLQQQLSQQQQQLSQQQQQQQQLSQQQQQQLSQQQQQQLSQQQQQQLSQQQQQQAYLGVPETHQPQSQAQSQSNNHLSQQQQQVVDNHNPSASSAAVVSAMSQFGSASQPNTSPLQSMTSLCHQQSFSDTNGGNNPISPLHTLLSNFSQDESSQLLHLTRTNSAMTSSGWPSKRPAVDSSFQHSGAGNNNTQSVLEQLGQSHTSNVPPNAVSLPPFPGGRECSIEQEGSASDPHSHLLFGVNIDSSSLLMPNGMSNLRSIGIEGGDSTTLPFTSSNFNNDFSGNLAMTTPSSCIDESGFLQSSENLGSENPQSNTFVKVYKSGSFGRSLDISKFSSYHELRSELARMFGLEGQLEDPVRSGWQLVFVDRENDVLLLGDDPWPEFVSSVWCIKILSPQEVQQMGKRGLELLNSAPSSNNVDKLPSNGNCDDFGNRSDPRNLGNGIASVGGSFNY
Sequence of UniProt Q9ZSY8 (whole entry, looked up): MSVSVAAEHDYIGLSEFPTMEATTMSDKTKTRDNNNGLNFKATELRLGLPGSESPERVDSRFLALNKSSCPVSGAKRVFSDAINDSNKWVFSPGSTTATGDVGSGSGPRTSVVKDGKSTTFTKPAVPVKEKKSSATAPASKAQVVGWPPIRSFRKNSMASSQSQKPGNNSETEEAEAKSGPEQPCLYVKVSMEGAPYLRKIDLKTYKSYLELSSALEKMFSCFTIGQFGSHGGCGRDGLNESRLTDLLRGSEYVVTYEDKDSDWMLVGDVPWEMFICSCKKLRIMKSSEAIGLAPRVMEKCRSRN
Sequence of UniProt Q9FGV1 (whole entry, looked up): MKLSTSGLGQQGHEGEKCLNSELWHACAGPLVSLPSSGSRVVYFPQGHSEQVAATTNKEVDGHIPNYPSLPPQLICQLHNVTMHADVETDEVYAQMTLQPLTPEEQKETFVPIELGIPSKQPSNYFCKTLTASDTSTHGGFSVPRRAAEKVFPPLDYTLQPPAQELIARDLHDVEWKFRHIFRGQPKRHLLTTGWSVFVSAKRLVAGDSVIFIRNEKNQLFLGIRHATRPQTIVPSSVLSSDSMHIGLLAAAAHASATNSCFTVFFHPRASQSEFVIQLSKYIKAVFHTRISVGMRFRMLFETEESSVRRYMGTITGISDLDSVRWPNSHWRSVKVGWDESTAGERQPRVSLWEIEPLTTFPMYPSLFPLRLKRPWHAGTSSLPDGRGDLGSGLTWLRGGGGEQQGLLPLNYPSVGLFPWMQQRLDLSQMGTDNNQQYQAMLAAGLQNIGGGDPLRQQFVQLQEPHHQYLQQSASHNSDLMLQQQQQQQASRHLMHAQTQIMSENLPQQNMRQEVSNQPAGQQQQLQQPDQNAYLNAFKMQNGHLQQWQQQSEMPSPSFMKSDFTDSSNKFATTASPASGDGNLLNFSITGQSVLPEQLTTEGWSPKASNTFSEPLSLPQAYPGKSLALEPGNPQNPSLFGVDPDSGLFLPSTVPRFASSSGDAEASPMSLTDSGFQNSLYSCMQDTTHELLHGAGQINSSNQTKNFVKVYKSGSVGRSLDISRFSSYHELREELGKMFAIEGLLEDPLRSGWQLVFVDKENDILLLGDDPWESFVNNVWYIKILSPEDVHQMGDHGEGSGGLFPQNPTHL
Sequence of UniProt Q9FKM7 (whole entry, looked up): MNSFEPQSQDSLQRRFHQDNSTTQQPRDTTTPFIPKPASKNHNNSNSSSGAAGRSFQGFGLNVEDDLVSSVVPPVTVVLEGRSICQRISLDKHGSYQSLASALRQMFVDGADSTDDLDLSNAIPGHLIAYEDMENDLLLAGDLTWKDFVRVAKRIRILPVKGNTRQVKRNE

Block 1
Target: Serine/threonine-protein kinase D2 (PRKD2, Homo sapiens, UniProt Q9BZL6)
Sequence of UniProt Q9BZL6 (whole entry, looked up): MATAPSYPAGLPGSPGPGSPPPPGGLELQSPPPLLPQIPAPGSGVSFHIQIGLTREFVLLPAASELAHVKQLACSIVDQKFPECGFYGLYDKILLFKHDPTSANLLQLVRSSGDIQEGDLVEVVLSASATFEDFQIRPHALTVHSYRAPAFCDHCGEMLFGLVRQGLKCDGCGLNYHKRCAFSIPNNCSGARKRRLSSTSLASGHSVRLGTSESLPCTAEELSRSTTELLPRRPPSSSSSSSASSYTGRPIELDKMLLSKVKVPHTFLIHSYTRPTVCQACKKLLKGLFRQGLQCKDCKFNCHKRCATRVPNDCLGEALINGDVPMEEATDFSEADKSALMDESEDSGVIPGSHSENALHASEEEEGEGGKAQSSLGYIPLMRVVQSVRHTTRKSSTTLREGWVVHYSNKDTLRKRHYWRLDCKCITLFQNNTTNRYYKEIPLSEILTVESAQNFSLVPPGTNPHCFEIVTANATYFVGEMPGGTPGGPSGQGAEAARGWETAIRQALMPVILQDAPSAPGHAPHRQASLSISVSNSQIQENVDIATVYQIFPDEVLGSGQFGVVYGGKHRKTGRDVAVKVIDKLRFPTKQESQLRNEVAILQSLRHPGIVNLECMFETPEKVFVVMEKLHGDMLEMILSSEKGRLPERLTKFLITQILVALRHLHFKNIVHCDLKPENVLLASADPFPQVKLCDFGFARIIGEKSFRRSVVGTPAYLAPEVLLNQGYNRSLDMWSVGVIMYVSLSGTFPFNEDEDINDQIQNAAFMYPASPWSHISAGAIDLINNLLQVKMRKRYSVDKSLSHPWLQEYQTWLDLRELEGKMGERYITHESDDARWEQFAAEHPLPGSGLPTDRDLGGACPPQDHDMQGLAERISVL
Observed: enzyme activity
Action: inhibitor
Concentration: 0.5 µM
Relative to: control
Quantity: remaining activity
Nc1ncnc2n[nH]c(Nc3ccc(F)cc3)c12: 81.3%
Cn1sc(=O)n(Cc2ccccc2)c1=O: 95.1%
COc1cc2ncnc(Nc3ccc(Oc4ccccc4)cc3)c2cc1OC: 100%
O=C(Nc1cccc(Nc2cc(Nc3cccc(C(F)(F)F)c3)ncn2)c1)C1CC1: 103%
COc1ccc(CNC(=O)Nc2ncc([N+](=O)[O-])s2)cc1: 97.3%
Cc1cccc(-c2[nH]c(C(C)(C)C)nc2-c2ccc3c(c2)OCO3)n1: 93.6%
Cc1ccc(NC(=O)c2ccc(CN3CCN(C)CC3)cc2)cc1Nc1nc(-c2cccnc2)cs1: 98.2%
COc1ccc(C(=O)Nc2sc3c(c2C(N)=O)CCCC3)cc1OC: 99.4%
O=C1NC(=O)C(c2cn(CCCn3ccnc3)c3ccccc23)=C1Nc1ccccc1: 94.3%
OCC(O)CCON=C1C(c2c(O)[nH]c3ccccc23)=Nc2ccccc21 (centres unmarked): 74.3%
N#CC(C#N)=C(N)/C(C#N)=C/c1ccc(O)cc1: 100%
CNC(=O)c1cc(Oc2ccc(NC(=O)Nc3ccc(Cl)c(C(F)(F)F)c3)cc2)ccn1: 96.2%
Oc1ccc(-c2nc(-c3ccncc3)c(-c3ccc(F)cc3)[nH]2)cc1: 79.9%
O=C(CCCc1ccc(-c2ccccc2F)cc1)Nc1ccc(O)cc1: 97.6%
Cc1ccc(Nc2nccc(N(C)c3ccc4c(C)n(C)nc4c3)n2)cc1S(N)(=O)=O: 90.8%

Block 2
Molecule: B1 (IAA19)
Method: two-hybrid
Direction: higher = firmer interaction
Quantity: positive tests
B1: IAA19 (Arabidopsis thaliana, UniProt O24409); chain MEKEGLGLEITELRLGLPGRDVAEKMMKKRAFTEMNMTSSGSNSDQCESGVVSSGGDAEKVNDSPAAKSQVVGWPPVCSYRKKNSCKEASTTKVGLGYVKVSMDGVPYLRKMDLGSSQGYDDLAFALDKLFGFRGIGVALKDGDNCEYVTIYEDKDGDWMLAGDVPWGMFLESCKRLRIMKRSDATGFGLQPRGVDE
IAA27 (Arabidopsis thaliana, UniProt Q9ZSY8); relative to: out of 2 tests: 1
IAA26 (Arabidopsis thaliana, UniProt Q8LAL2); relative to: out of 4 tests: 2
IAA34 (Arabidopsis thaliana, UniProt Q9C5X0); relative to: out of 4 tests: 4
IAA20 (Arabidopsis thaliana, UniProt O24410); weak activation fusion; relative to: out of 4 tests: 1
IAA33 (Arabidopsis thaliana, UniProt Q9FKM7); relative to: out of 4 tests: 1
ARF6 790-935 (Arabidopsis thaliana, UniProt Q9ZTX8); relative to: out of 4 tests: 2
ARF14 497-605 (Arabidopsis thaliana, UniProt Q9LQE8); relative to: out of 4 tests: 0
ARF8 699-811 (Arabidopsis thaliana, UniProt Q9FGV1); relative to: out of 4 tests: 4

Block 3
Target: Sal-like protein 4, full length isoform B (SALL4, Homo sapiens, UniProt Q9UJQ4-2, residues 1-616)
Method: universal PBM
Form: double-stranded DNA, one strand shown
Medium: in vitro
Concentration: not given
Notes: 8-mer, flanks averaged, mean of replicates
Direction: higher = stronger binding
Quantity: E-score
GCTATGAA: 0.15
ACATGAAC: 0.154
CTGGGCAC: -0.338
CCAGAGTC: -0.143
CTAGTTTA: 0.128
AGTACGGG: -0.0914
CCCCTATA: 0.125
CCCCGATC: -0.277

Single results of other studies
CCCCN(CCCC)C(=O)CN1C[C@@H](c2cc(OC)c3c(c2)OCO3)[C@H](C(=O)O)[C@H]1CC(C)(C)CCC  remaining binding (Tyrosine-protein kinase ABL1, phosphorylated (ABL1, Homo sapiens, UniProt P00519, E255K); cell-free assay, competition with immobilised ligand; 1 µM): 93.5%

Excerpt of the above (block 1):
O=C(Nc1cccc(Nc2cc(Nc3cccc(C(F)(F)F)c3)ncn2)c1)C1CC1: 103%
Cc1ccc(NC(=O)c2ccc(CN3CCN(C)CC3)cc2)cc1Nc1nc(-c2cccnc2)cs1: 98.2%
COc1cc2ncnc(Nc3ccc(Oc4ccccc4)cc3)c2cc1OC: 100%
COc1ccc(C(=O)Nc2sc3c(c2C(N)=O)CCCC3)cc1OC: 99.4%
Cc1ccc(Nc2nccc(N(C)c3ccc4c(C)n(C)nc4c3)n2)cc1S(N)(=O)=O: 90.8%
